Measurements collected from several papers.
Parts stem from different laboratories: compare values within a part only.

Block 1
Target: Fragile X messenger ribonucleoprotein 1, C-terminal low-complexity region (Fmr1, Mus musculus, UniProt P35922)
Technique: RNA Bind-n-Seq
Molecule type: RNA
Sample: in vitro
Concentration: 200 nM
Setting: whole 134-nt RNA, ends assumed
With: 150 mM KCl
Baseline: input library
Reading: higher = stronger binding
Shared flanks, not repeated: GGGAGUUCUACAGUCCGACGAUC … UGGAAUUCUCGGGUGUCAAGG
Oligonucleotide	log2 enrichment
UCCUGUGCUACACAUCGUAUGUACCGAAUCGGGAAAAAGGGAAAAAAAGGGUUUUUGGGAAAGUAUUAUGUUACGCCGUUCGGAUCUGCA	-0.164
UGGCCCUGGUGGCAUGCGGGGAGGAAGAGGAGGCCUCAUGGAUCGUGGUGGUCCCGGUGGAAUGUUCAGAGGUGGCCGUGGUGGAGACAG	0.117
UAACUUUAGAGGAGGAUCUGAUGGAUAUGGCAGUGGACGUGGAUUUGGGGAUGGCUAUAAUGGGUAUGGACGAGGACCUGGAGGUGGCAA	0.219
CCUGUGCUACACAUCGUAUGUACCGAAUCGGGGUUUGGGGAAAAAAAGGGGUUUUUGGGGAAAGUAUUAUGUUACGCCGUUCGGAUCUGC	0.415
GUCCUGUGCUACACAUCGUAUGUACCGAAUCGGAAAAAAGGGGAAAAAAGGAAAAAAGGAAAGUAUUAUGUUACGCCGUUCGGAUCUGCA	-0.565
GCGGGAAGUAAAAACAAAUGGAAAUGCUUCGGAUAGUGGCAGGGGUGGGGGUUGCUAAGGAAAGGGUGGGAUGGGAGUGGGUAAAGAGUU	0.621
UUCCGCGACUACCGGCGUGUGCACAAGCCGCCCAAGGUGCAGGAGAAGUGCCAGCUGGAGAUCAACUUCAACACGCUGCAGACCAAGCUG	-1.3
AGUCCUGUGCUACACAUCGUAUGUACCGAAUCAAACCCCCAAAUUUUUAAACCCAAAAAAGUAUUAUGUUACGCCGUUCGGAUCUGCACU	-0.00699
UCAAGUCCUGUGCUACACAUCGUAUGUACCGAAUCGGAAAAAAAGGAGGUUUGGAAAGUAUUAUGUUACGCCGUUCGGAUCUGCACUUCC	-0.996
ACCAUGCAGGUGGGCAUCUUUGGGAAGUGGGGCAAGGGGGGGAUAGGGAGGGGGGUAACACUUUGGGAACCGGUGGUCCCAGGUCGUUUC	0.345
GCAGGAAGUAAAAACAAAUGGAAAUGCUACGGAUAGUGGCAGGGGUGGGGGUUGCUAAGGAAAGGGUGGGAUGGGAGUGGGUAAAGAGUU	0.988
UCAAGUCCUGUGCUACACAUCGUAUGUACCGAAUCGGAAGGGGAAGGGGAAGGGGAAAGUAUUAUGUUACGCCGUUCGGAUCUGCACUUC	0.736
UCAAGUCCUGUGCUACACAUCGUAUGUACCGAAUCGGUUUUUGGAAAAAGGAGGAAAGUAUUAUGUUACGCCGUUCGGAUCUGCACUUCC	-0.466
ACCAUGCAGGUGGGCAUCUUUGGGAAGUGGGGCAAGGGGGGGAUAGGGAGGGGAGUAACACUUUGGGAACAGGUGGUCCCAGGUCGUUUC	0.847

Block 2
Target: RNA binding protein fox-1 homolog 2, RRM domain, GST-SBP tag (RBFOX2, Homo sapiens, UniProt O43251-10, residues 100-194)
Technique: RNA Bind-n-Seq
Molecule type: RNA
Sample: in vitro
Concentration: 365 nM
Setting: natural RNA segment, single round, ends assumed
Baseline: no-protein control
Reading: higher = stronger binding
Shared flanks, not repeated: GGGAGUUCUACAGUCCGACGAUC … UGGAAUUCUCGGGUGCCAA
Construct (chain): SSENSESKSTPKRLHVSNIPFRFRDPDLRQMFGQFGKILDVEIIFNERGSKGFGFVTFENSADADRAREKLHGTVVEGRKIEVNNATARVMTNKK
Oligonucleotide	RBNS enrichment (R)
CAAGGCAUGAUGUGGCAGUAGCUGCUUCCCCUACCACUAGCUGCCCCCUCAUGGUCGUCUGGGGGACAGAGGUGGUCUGUGUUUACAAGGGCAGUCAAGUCCAGUCACCC	8.25
UCCCUCCACUGCCUCGAAGAGUCAGUCUGCCCUGCCUUUUCCUUUCGGGCACCACCAGCCAUCCCCGAGUGCCCUGUAGCCACUCACCACUGCUGCCACCUCUCUGGCCA	0.948
UGACAUUUACUCUUAUGUCUUUCUCUGGUCAUUCUGUUUUGUGGUACAAUCACCGUGUAAGUUAUGGUCUAAACCUGUCCUUUUGAGAGAGAAAAAGAUACUGUUGAUAA	0.502
UCUCCCCUGUACAUGUACUGUAGAAAUGUGUGAUGACAAACGGACUAAUAAAGAACAUUUGGUUGGUCAGAUCCACUUUUAACCUCUGGUGCUGUACAGAAGGCAUUAAA	0.572
CAGCCGGAGACUCAAGGUCACUGGAGACCUGUUUGACAUCAUGUCGGGCCAGACCGAUGUGGAUCACCCGCUGUGUGAGGAAUGCACAGACACUCUUUUAGACCAGCUGG	0.325
AGAGUGUUGACCUUGUUAAGACGGACGUAGCUGCACGGUAUUCUCAAUACUGAGAUUGCAAAACUGAAGCUUGACAAGUGUGUGGAAGACCCUGGCUCAAGUUCCAGCAC	1.29
GGCUUGCAUCCUGUUGUGUAUUCUUUGUAUGCUGCUGACUAUAUCCCUAUUCUGCUGUAGGGGACUAGAUUUCUAAUAGAGAACAUUGGCAUGGUAGCUGAAGCCCACUC	1.08
UUUCCUAUCUCUAAAAUAUCUACUUCUGUGAAGAAGACUGGCUUACUCAGGCCAGGGCCCUCCUGACGACGGUUUCCUGACUAGAAGAAAGGGACGUGGGUUUGAAGGCA	0.315
AUCGCUAAGGCCGAUCCUGUAGAAUGCGGCUUUCAAGAGGUCCUAACUGAUCCUUUCUUCCACUUUGCUGUUGAUUUGUUCACAAAUUAUGUCUGAAUGAGAAAUCUUCU	0.664
AAACUACAGCAUCAUUGCAUACUUCUUGAUGGUAAUAAAUUUGAAUAAUCAAGAUUUCUUACACACUGGCCUCUGUCUCAGCUCCUGUAUCUAGAGUGUGGUAUCUUAAG	4.87
CCUAAAUAAAAAAUUUGCACAGGUAAAUUCUCUCACUUGUGAAUGGGAGAAGCUGCCCCAGGAAUCUGUGAGGAUGGUAUUCCCUGGAGUCUGGCUUUGAAAGAUUUCAU	0.533
UCUCAGUGAUUAGCUUUUGGUAUGUCUGUAGCUUUCCUUGAAGUUGAAUAAAUGUUUCCCCCACUCCAGUGCCCUCUACUUGUCUUUUCUCAGAGGGUCUGACUCUUUCA	1.83

Block 3
Target: Sal-like protein 4, full length isoform A (SALL4, Homo sapiens, UniProt Q9UJQ4, residues 1-1053)
Sequence of UniProt Q9UJQ4 (whole entry, looked up): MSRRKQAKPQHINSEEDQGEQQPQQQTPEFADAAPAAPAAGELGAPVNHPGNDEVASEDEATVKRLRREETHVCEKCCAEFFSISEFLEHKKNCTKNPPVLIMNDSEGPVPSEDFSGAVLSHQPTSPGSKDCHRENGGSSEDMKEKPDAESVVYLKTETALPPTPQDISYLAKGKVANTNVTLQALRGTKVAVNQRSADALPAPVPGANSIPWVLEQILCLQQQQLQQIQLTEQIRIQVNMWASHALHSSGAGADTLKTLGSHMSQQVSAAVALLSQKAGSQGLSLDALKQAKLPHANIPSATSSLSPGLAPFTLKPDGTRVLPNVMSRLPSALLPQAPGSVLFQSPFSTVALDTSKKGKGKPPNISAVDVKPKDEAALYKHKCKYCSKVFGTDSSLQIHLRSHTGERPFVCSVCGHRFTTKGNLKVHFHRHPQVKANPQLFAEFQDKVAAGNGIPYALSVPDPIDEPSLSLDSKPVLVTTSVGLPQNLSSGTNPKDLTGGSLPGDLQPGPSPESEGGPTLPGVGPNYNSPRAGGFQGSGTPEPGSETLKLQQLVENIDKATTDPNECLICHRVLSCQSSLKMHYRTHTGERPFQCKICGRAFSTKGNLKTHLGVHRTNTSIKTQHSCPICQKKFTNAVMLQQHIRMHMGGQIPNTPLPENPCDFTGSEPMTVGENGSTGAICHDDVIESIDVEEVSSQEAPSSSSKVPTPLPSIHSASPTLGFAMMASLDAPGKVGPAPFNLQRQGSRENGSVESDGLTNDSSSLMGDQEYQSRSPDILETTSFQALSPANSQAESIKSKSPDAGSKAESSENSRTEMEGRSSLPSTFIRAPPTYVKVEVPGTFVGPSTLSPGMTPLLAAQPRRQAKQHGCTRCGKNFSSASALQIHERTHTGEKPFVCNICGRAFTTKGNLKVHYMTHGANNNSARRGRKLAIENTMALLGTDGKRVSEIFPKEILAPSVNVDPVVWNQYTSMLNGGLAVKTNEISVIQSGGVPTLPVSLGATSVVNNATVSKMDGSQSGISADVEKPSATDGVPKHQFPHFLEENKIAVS
Technique: universal PBM
Molecule type: double-stranded DNA, one strand shown
Sample: in vitro
Concentration: 600 nM
Setting: 8-mer, flanks averaged, mean of replicates
Reading: higher = stronger binding
Oligonucleotide	E-score
TAACGACA	0.115
GCAGGTGA	-0.231
AAATTCCA	0.285
AAATGGTC	0.0978
GTACTAAA	0.255
CACTCAGG	-0.184
GCCTTAAC	-0.165
CCAAGACG	-0.121
CAGGGCCA	-0.304
CCTCCTTA	-0.118
GAAAGCTC	-0.257
CGGGCCAG	-0.32
AATACGTG	0.147
GGAACTAC	-0.2
CGCATTAA	0.25
GAAGCTGA	-0.0362
GTGTCGTA	0.0016
TACGATAA	0.304
CACTGTGA	-0.0721
TAGGGGAA	-0.0936
ACCGTAAC	0.0407
AACAACCA	0.108
CTCTTGAA	0.158
AGATGACC	-0.0536
CCTCTCAC	-0.0998

Block 4
Target: PABPC1L2, full length, GST fusion (mouse, UniProt A0ABA7IW68)
Technique: RNAcompete
Molecule type: RNA
Sample: in vitro
Concentration: 20 nM
Setting: 7-mer, probes averaged, single round
Baseline: mean of 7-mers
Reading: higher = stronger binding
Construct (chain): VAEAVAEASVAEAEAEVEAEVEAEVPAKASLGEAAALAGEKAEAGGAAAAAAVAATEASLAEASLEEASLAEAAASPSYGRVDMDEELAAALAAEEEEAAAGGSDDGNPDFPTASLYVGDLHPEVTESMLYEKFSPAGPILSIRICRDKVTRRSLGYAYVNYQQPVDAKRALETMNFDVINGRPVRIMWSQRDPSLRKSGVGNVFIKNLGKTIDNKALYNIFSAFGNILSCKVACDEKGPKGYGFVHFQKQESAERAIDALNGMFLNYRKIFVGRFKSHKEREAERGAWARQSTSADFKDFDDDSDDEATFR
Oligonucleotide	7-mer Z-score
UUCUGCG	-0.249
ACACCAG	-0.112
GCCAGGG	0.151
UAGUGGU	-0.329
UACGAAG	-0.148
CCACCUG	-0.356
GAAUAGC	-0.233
GUUCGCA	-0.427
CUAUCCA	-0.371
UCUGAGC	-0.273
UAGCCAA	-0.11
UCACGGC	-0.162
UCUGAGU	-0.28
CCUGGAG	-0.0554
CCCUGCA	-0.318
AAUUCCG	0.0315
AGGCAGA	0.365
CUUCGAG	-0.157
AUCUUAA	-0.0355
ACUUAUC	-0.173
CGAAGGU	-0.19

Block 5
Target: Interferon regulatory factor 7, full length, phosphomimetic (IRF7, Homo sapiens, UniProt Q92985, residues 1-503, S471D/S472D/S475D/S476D/S477D/S483D/S484D/S487D)
Technique: protein-binding microarray
Molecule type: double-stranded DNA, one strand shown
Sample: in vitro
Concentration: 2200 nM top
Setting: 60-bp whole probe
With: salmon DNA 0.4 mg/ml
Baseline: random background probes
Reading: higher = stronger binding
Shared flanks, not repeated: GCCTAGCAC … GTCTTGATTCGCTTGACGCTGCTG
Residues (chain): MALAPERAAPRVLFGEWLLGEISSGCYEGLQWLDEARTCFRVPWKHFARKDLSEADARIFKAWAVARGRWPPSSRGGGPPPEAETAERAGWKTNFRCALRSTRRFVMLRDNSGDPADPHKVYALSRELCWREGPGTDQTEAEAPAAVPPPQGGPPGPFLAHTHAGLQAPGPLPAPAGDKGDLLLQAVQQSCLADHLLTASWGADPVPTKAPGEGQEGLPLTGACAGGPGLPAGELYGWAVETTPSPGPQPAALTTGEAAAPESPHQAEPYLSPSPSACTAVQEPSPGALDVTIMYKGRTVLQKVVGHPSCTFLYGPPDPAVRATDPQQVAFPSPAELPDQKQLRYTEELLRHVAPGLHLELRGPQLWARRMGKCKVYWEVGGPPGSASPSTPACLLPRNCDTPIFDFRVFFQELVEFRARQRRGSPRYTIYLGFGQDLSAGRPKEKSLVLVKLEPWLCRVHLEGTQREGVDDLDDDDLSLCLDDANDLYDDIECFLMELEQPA
Oligonucleotide	fitted relative affinity [z-score]
GACGGTTTCGACTATCGGAACGTGCTA	3.37
GACGGACTGGACTTTCGGGCCGTGCTA	1.02
ATGTGTTTACATATGTTTTTGTGCTAG	1.4
TCAATCCCCAGTCTCATACTGTGCTAG	1.04
TCATGTGTGTGTATGTGACTGTGCTAG	1.11
GACGATTTCAGACTGGAGAAGTGCTAG	0.0751
GAGCTCCTCCTTCTCTAACCGTGCTAG	1.34
TTGGGACTGGGGACTGGGTTAGTGCTA	-0.818
GACGGATTGCTACTGCTGACGTGCTAG	0.196
TTAGATAGCGGGACTGGATTAGTGCTA	-0.662
GACGGTTTCGGGGCTGGGGACGTGCTA	2.62
TTACGACTGCTTATCCTTTAGTGCTAG	1.14
TTAGGACTGCTTATCCTTTGGTGCTAG	0.407
TTAGAACTGAGTAACGATTAGTGCTAG	-0.903
TCATTTCCCACTTTCACACTGTGCTAG	5.56
GACGTACTGGGGTATCGAGACGTGCTA	-0.143
TTAGAACTGGACACTGGGTTAGTGCTA	-0.696
TCCTCTTTCACTGCTCCCCACGTGCTA	3.19
GACGATCTCGGTTTCGGGACGTGCTAG	3.55
TCACATCTTGTTCCCAGACTGTGCTAG	2.24
GTCCCTGAATGAAAACATCATGTGCTA	0.766
TTAGGTTTCGGTTCAGGTTAGTGCTAG	12.9
CTTTCTTTATGTACTCTCTCCGTGCTA	2.62

Block 6
Target: Histone acetyltransferase KAT6A, winged helix 2, GST fusion (KAT6A, Homo sapiens, UniProt Q92794, residues 85-181)
Technique: protein binding microarray
Molecule type: double-stranded DNA, one strand shown
Sample: in vitro
Concentration: not given
Setting: 8-mer, flanks averaged, mean of 2 arrays, mostly near background
Baseline: not given
Reading: higher = stronger binding
Target sequence (chain): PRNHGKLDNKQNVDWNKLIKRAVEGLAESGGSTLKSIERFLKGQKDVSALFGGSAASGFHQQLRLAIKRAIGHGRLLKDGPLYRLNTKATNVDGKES
Oligonucleotide	E-score
GGAAAAGA	-0.0517
GTCCCAAA	0.1
ACCCGCGC	0.236
GGCAACAA	0.0518
CCTCTGAA	-0.0367
AGCAGGGG	0.126
GAATCGCA	-0.055
CCGCATAA	0.209
ACAGGAGC	0.0555
TAAGCGAA	-0.005
GTGGCCTA	-0.149
CCAGTACC	0.0347
GCAACACA	0.0602
AGCAAAGA	0.0661
ATTGACTA	-0.0681
AGCTACAT	0.0644
CTAGCGTA	-0.217
ATAGGCGG	0.0259
AAGTCTCA	-0.206
CTACAAGA	-0.000175
AAGGTTGA	0.0181

Some of these lines once more (block 5):
Oligonucleotide	fitted relative affinity [z-score]
GACGGATTGCTACTGCTGACGTGCTAG	0.196
TTAGAACTGAGTAACGATTAGTGCTAG	-0.903
TCACATCTTGTTCCCAGACTGTGCTAG	2.24
GACGATCTCGGTTTCGGGACGTGCTAG	3.55
TTACGACTGCTTATCCTTTAGTGCTAG	1.14
ATGTGTTTACATATGTTTTTGTGCTAG	1.4
GACGGACTGGACTTTCGGGCCGTGCTA	1.02
CTTTCTTTATGTACTCTCTCCGTGCTA	2.62
TTAGAACTGGACACTGGGTTAGTGCTA	-0.696
TTAGATAGCGGGACTGGATTAGTGCTA	-0.662
TCAATCCCCAGTCTCATACTGTGCTAG	1.04
TTGGGACTGGGGACTGGGTTAGTGCTA	-0.818
